Measured values from different studies.
Protocols differ between the studies behind these lines. ± gives the spread as reported.

Compound	assay	system	conditions	half-life
CC(=O)O[C@H]1C(=O)[C@@]2(C)[C@H]([C@H](OC(=O)c3ccccc3)[C@]3(O)C[C@H](OC(=O)[C@H](O)[C@@H](NC(=O)c4ccccc4)c4ccccc4)C(C)=C1C3(C)C)[C@]1(OC(C)=O)CO[C@@H]1C[C@@H]2O	–	human, plasma	intravenous infusion, 80 mg/m^2, day 5, with oral co-drug daily	8.3 h
CC(C)NC(=O)COc1cccc(-c2nc(Nc3ccc4[nH]ncc4c3)c3ccccc3n2)c1	–	human, male, fed, plasma	oral, 200 mg, day 3, geometric mean	~6 h
Cn1nnc2c(C(N)=O)ncn2c1=O	–	human patients, plasma	oral, 20 mg/m2, day 5, dose level DL2, median, together with: talazoparib 400 µg/m2	2.8 h
CC#CC(=O)N1CC[C@@H](n2c(=O)n(-c3ccc(Oc4ccccc4)cc3)c3c(N)ncnc32)C1	–	human, fasted, plasma	oral, 480 mg once daily, cycle 1 day 28	3.07 ± 0.486 h
N#Cc1cc(NC(=O)[C@H]2c3ccccc3C(=O)N(CC(F)(F)F)[C@@H]2c2cccnc2)ccc1F	–	human, plasma	oral, 900 mg, median	19.5 h
C#C[C@]1(COP(=O)(O)O)O[C@@H](n2cnc3c(N)nc(F)nc32)C[C@@H]1O	refers to: islatravir triphosphate	human, PBMC	oral, 200 mg single dose	112 h
NS(=O)(=O)OC[C@@H]1C[C@@H](n2ccc3c(N[C@H]4CCc5ccccc54)ncnc32)C[C@@H]1O	LC-MS/MS, non-compartmental	human, plasma	intravenous, all dose levels, cycle 1 day 8, median, together with: irinotecan/temozolomide	4.9 h
O=C(O)CCC(=O)O.[2H]C([2H])([2H])Oc1cc(C)c2[nH]ccc2c1CN1CC[C@@H](C2CC2)C[C@H]1c1ccc(C(=O)O)cc1	–	human, plasma	300 mg once daily, day 10, multiple ascending dose, mean	33.2 h
COc1ccc([C@@H](O)c2cc(-c3ncnc4cc(N5CCOCC5)ccc34)c(F)cc2Cl)nn1	–	human, plasma	oral, 250 mg twice daily, single dose, geometric mean	2.25 h
NC(CO)(CO)CCc1ccc(Sc2cccc(OCc3ccccc3)c2)cc1Cl	–	human, whole blood	oral, 3 mg, mean, alone	110 h
C[C@@H]1CCO[C@H]2Cn3cc(C(=O)NCc4ccc(F)cc4F)c(=O)c(O)c3C(=O)N12	–	human, normal renal function, plasma	oral, fixed-dose combination	11.3 h
CCN1CCN(Cc2ccc(Nc3ncc(F)c(-c4cc(F)c5nc6n(c5c4)[C@H](C)CCC6)n3)nc2)CC1	–	human, plasma	500 mg single dose, mean	42.1 h
N#CCNC(=O)c1ccc(-c2ccnc(Nc3ccc(N4CCOCC4=O)cc3)n2)cc1	–	healthy human volunteers, plasma	200 mg momelotinib, day 1, fasted, momelotinib alone	7.65 h
C#C[C@]1(CO)O[C@@H](n2cnc3c(N)nc(F)nc32)C[C@@H]1O	–	human, plasma	oral, 30 mg single dose, fed	63.5 h
CN(C)CCC[C@@]1(c2ccc(F)cc2)OCc2cc(C#N)ccc21	–	human	intramuscular	28.8 h
COc1cc(C(=O)NC2CCN(C)CC2)c(F)cc1Nc1ncc(C(F)(F)F)c(Oc2cccc3c2C(=O)N(C)C3)n1	–	human, Japanese, plasma	oral, 200 mg single dose, geometric mean	21.5 h
Cn1cncc1[C@@](N)(c1ccc(Cl)cc1)c1ccc2c(c1)c(-c1cccc(Cl)c1)cc(=O)n2C	–	human, plasma	oral, 300 mg/m^2, median, first dose	4.7 h
CC[C@H](C)CCCCC(=O)N[C@@H](CCN)C(=O)N[C@H](C(=O)N[C@@H](CCN)C(=O)N[C@H]1CCNC(=O)[C@H]([C@@H](C)O)NC(=O)[C@H](CCN)NC(=O)[C@H](CCN)NC(=O)[C@H](CC(C)C)NC(=O)[C@@H](Cc2ccccc2)NC(=O)[C@H](CCN)NC1=O)[C@@H](C)O	–	human, long-term IHD, plasma	intravenous, 0.75 mg/kg, single 1-h infusion,, arithmetic mean	15.2 h
C[C@@H](Nc1cc(F)cc(F)c1)c1cc(C(=O)N(C)C)cc2c(=O)cc(N3CCOCC3)oc12	–	human	oral, 180 mg twice daily, day 1, 5:2 schedule, single dose, geometric mean	5.39 h
NC(=O)c1[nH]cnc1N	–	human patients, plasma	IV infusion over 1 h, 1000 mg/m^2 DTIC, cycle 2 day 1, co-administered with co-drug	3.75 h
COc1cc([C@H]2Oc3cc([C@H]4Oc5cc(O)cc(O)c5C(=O)[C@@H]4O)ccc3O[C@@H]2CO)ccc1O	–	OATP1B1/1B3 humanized mice, plasma	oral gavage, 500 mg/kg silymarin	0.38 h
Cc1cc(OCCOCCC(F)(F)P(=O)(O)O)ccc1CCc1cnc2c(N)nc3cc(CCC(=O)O)ccc3c2c1	–	human, serum	intratumoral, 400 µg every 2 weeks, cycle 1 day 1	27.4 h
C[C@@H](Cn1ccc(-c2ccc(C#N)c(Cl)c2)n1)NC(=O)c1cc([C@@H](C)O)[nH]n1	–	human, fasted	oral, 300 mg 14C-darolutamide solution, geometric mean	6.58 h
CO[C@H]1C[C@@H]2CC[C@@H](C)[C@@](O)(O2)C(=O)C(=O)N2CCCC[C@H]2C(=O)O[C@H]([C@H](C)C[C@@H]2CC[C@@H](OC(=O)NCCOCCOCCOCCOCCOCCOCCOCCOCCC(=O)N3CCc4cc(Cn5nc(-c6ccc7oc(N)nc7c6)c6c(N)ncnc65)ccc4C3)[C@H](OC)C2)C[C@@H](O)[C@H](C)/C=C(\C)[C@@H](O)[C@@H](OC)C(=O)[C@H](C)C[C@H](C)/C=C/C=C/C=C/1C	–	human, plasma	intravenous, 6 mg, cycle 1 day 1, arithmetic mean	3.76 h

Compound	assay	system	conditions	half-life
NCCCS(=O)(=O)O	–	human, plasma	oral, 340 mg once daily, day 14, capsule, fasted, dosed days 8-14	38.7 h
CC1=C(c2cccc(O)c2)[C@H](c2ccc(OCCN3CC(CF)C3)cc2)Oc2ccc(O)cc21	–	human, plasma	oral, 1000 mg single dose	17 h
C[C@@H](N)c1cc(Cl)ccc1Cn1c(=S)[nH]c(=O)c2[nH]ccc21	–	human, both sexes, matched healthy controls	oral, 2.5 mg single dose, geometric mean	~50 h
Cc1cc(C)c(CNC(=O)c2cc(Cl)c3c(c2C)O[C@@](C)([C@H]2CC[C@H](N(C)C)CC2)O3)c(=O)[nH]1	mean	healthy male humans, plasma	oral, 25 mg, day 11, together with: itraconazole	39.2 h
O=C(COc1ccc(Cl)cc1)NC12CC(c3nnc([C@H]4C[C@@H](OC(F)(F)F)C4)o3)(C1)C2	–	healthy human volunteers fasted, plasma	oral, 800 mg single dose, geometric mean	42.3 h
CCS(=O)(=O)Nc1ccc(Oc2ccc(F)cc2F)c(-c2cn(C)c(=O)c3[nH]ccc23)c1	–	human, plasma	oral, 2.5 mg, cycle 1 day 8, harmonic mean	14.8 ± 2.8 h
Fc1ccc([C@@H]2CCNC[C@H]2COc2ccc3c(c2)OCO3)cc1	–	human, CYP2D6 poor metabolizers	oral, 20 mg, steady state, geometric mean	23 h
Cc1ccc([C@@H]2O[C@H](CO)[C@@H](O)[C@H](O)[C@H]2O)cc1Cc1ccc(-c2ccc(F)cc2)s1	–	human, maintenance hemodialysis patients	oral, 300 mg once daily, steady state, mean	11.4 h
Cc1noc(C)c1-c1cc(C(O)(c2ccccn2)c2ccccn2)c2nc(C3CC3)[nH]c2c1	–	human patients, plasma	oral, 0.6 mg, cycle 1 day 8, monotherapy	13.1 h
COc1ncc(-c2nc3c(n2C(C)C)[C@H](c2ccc(Cl)cc2)N(c2cc(Cl)cn(C)c2=O)C3=O)c(OC)n1	–	human, plasma	oral, 200 mg, C1D1, high-dose, median	6.4 h
C[C@H](Oc1ccc(Br)cc1-c1ccon1)C(=O)O	LC-MS/MS, non-compartmental	human, plasma	400 mg once daily, day 1, multiple ascending dose, mean	5.66 h
Nc1c2c(cc3c1CCC3)CCC2	–	human, plasma	oral, 450 mg of GDC-2394, single ascending dose	35.9 h
Cc1nc(-c2ccc(OCC(C)C)c(C#N)c2)sc1C(=O)O	–	human	oral, 40 mg once daily, together with: verinurad 0 mg	6.89 h
COc1cc(Nc2ncc3c(n2)-c2ccc(Cl)cc2C(c2c(F)cccc2OC)=NC3)ccc1C(=O)O	–	human patients, plasma	oral, 40 mg, cycle 1 day 1, together with: pembrolizumab	4.6 h
CC1(COc2ccc3c(c2)ncn3-c2ccc3cccc(N4CCC(N)CC4)c3n2)COC1	–	human patients, recurrent/progressive HGG or DIPG, serum	oral, 170 mg/m^2, day 28, median	5.9 h
C=CC(=O)N(C)CCOc1c(N)ncnc1-c1cc(F)cc(NC(=O)c2ccc(C3CC3)cc2F)c1C	–	human, whole blood	oral, 30 mg, single ascending dose, median	0.91 h
CCN(CC)Cc1cc(Nc2ccnc3cc(Cl)ccc23)ccc1O	–	human, both sexes, plasma	oral, dose not given, non-fixed combination	2.37 h
CC(C)(Sc1ccncc1-c1ccc(C#N)c2ccccc12)C(=O)O	–	human	oral, 15 mg once daily, together with: febuxostat 0 mg	19.6 h
CCN(CC)CCNC(=O)c1c(C)[nH]c(/C=C2\C(=O)Nc3ccc(F)cc32)c1C	–	human patients, plasma	oral, cycle 1 day 15	73.2 h
CN1CCC(COc2cnc(-c3cccc(Cn4nc(-c5cccc(C#N)c5)ccc4=O)c3)nc2)CC1	–	human	dose not given, geometric mean, together with: itraconazole 200 mg once daily	40.9 h
C=CC(=O)NC1CCN(c2ncc3ncnc(Nc4ccc(Oc5ccc6c(c5)ncn6C)c(C)c4)c3n2)CC1	–	human, male, plasma	oral, 30 mg single dose, fed, geometric mean	34.9 h
CN(C)N=Nc1[nH]cnc1C(N)=O	–	human patients, plasma	intravenous, 1000 mg/m^2 over 1 h, cycle 2 day 1, co-administered with another drug	2.62 h
[H]/N=C(/N)c1ccc(NCc2nc3cc(C(=O)N(CCC(=O)O)c4ccccn4)ccc3n2C)cc1	–	healthy human subjects, plasma	oral, 150 mg, dabigatran etexilate, arithmetic mean, together with: fruquintinib 5 mg	9.44 h
COc1cc(C(=O)NC2CCN(C)CC2)c(F)cc1Nc1ncc(C(F)(F)F)c(Oc2cccc3c2C(=O)N(C)C3)n1	–	human patients, plasma	oral, 50 mg single dose, geometric mean	25.2 h

A few entries again:
Compound	assay	system	conditions	half-life
Cn1cncc1[C@@](N)(c1ccc(Cl)cc1)c1ccc2c(c1)c(-c1cccc(Cl)c1)cc(=O)n2C	–	human, plasma	oral, 300 mg/m^2, median, first dose	4.7 h
CC[C@H](C)CCCCC(=O)N[C@@H](CCN)C(=O)N[C@H](C(=O)N[C@@H](CCN)C(=O)N[C@H]1CCNC(=O)[C@H]([C@@H](C)O)NC(=O)[C@H](CCN)NC(=O)[C@H](CCN)NC(=O)[C@H](CC(C)C)NC(=O)[C@@H](Cc2ccccc2)NC(=O)[C@H](CCN)NC1=O)[C@@H](C)O	–	human, long-term IHD, plasma	intravenous, 0.75 mg/kg, single 1-h infusion,, arithmetic mean	15.2 h
C[C@@H](Nc1cc(F)cc(F)c1)c1cc(C(=O)N(C)C)cc2c(=O)cc(N3CCOCC3)oc12	–	human	oral, 180 mg twice daily, day 1, 5:2 schedule, single dose, geometric mean	5.39 h
NC(=O)c1[nH]cnc1N	–	human patients, plasma	IV infusion over 1 h, 1000 mg/m^2 DTIC, cycle 2 day 1, co-administered with co-drug	3.75 h
COc1cc([C@H]2Oc3cc([C@H]4Oc5cc(O)cc(O)c5C(=O)[C@@H]4O)ccc3O[C@@H]2CO)ccc1O	–	OATP1B1/1B3 humanized mice, plasma	oral gavage, 500 mg/kg silymarin	0.38 h
Cc1cc(OCCOCCC(F)(F)P(=O)(O)O)ccc1CCc1cnc2c(N)nc3cc(CCC(=O)O)ccc3c2c1	–	human, serum	intratumoral, 400 µg every 2 weeks, cycle 1 day 1	27.4 h
C[C@@H](Cn1ccc(-c2ccc(C#N)c(Cl)c2)n1)NC(=O)c1cc([C@@H](C)O)[nH]n1	–	human, fasted	oral, 300 mg 14C-darolutamide solution, geometric mean	6.58 h
CO[C@H]1C[C@@H]2CC[C@@H](C)[C@@](O)(O2)C(=O)C(=O)N2CCCC[C@H]2C(=O)O[C@H]([C@H](C)C[C@@H]2CC[C@@H](OC(=O)NCCOCCOCCOCCOCCOCCOCCOCCOCCC(=O)N3CCc4cc(Cn5nc(-c6ccc7oc(N)nc7c6)c6c(N)ncnc65)ccc4C3)[C@H](OC)C2)C[C@@H](O)[C@H](C)/C=C(\C)[C@@H](O)[C@@H](OC)C(=O)[C@H](C)C[C@H](C)/C=C/C=C/C=C/1C	–	human, plasma	intravenous, 6 mg, cycle 1 day 1, arithmetic mean	3.76 h
